Measured values gathered from unrelated publications.
Every numbered part comes from another study and shows a few of its results, in no order.

Block 1
Cell line: HEK-293T
Read-out: pseudovirus infection
Method: FDA-approved drug library screen
Organism: VSV pseudotyped with SARS-CoV-2 spike
Concentration: 10 µM
Time: 16 h
Relative to: vehicle-treated
SMILES	GFP-positive cells [%]
NS(=O)(=O)c1cc2c(cc1C(F)(F)F)NC(Cc1ccccc1)NS2(=O)=O (centres unmarked)	82.6
COc1cc(N)c(Cl)cc1C(=O)NC1CCN(CCCOc2ccc(F)cc2)CC1OC (centres unmarked)	73.6
CN(C)c1ccc(C(=C2C=CC(=[N+](C)C)C=C2)c2ccc(N(C)C)cc2)cc1	22.5
Cc1ccc(S(=O)(=O)NC(=O)NN2CCCCCC2)cc1	84.9
CC(=O)Oc1ccccc1C(=O)Nc1ncc([N+](=O)[O-])s1	16.6
CCN1CCN(C(=O)N[C@@H](C(=O)N[C@@H]2C(=O)N3C(C(=O)O)=C(CSc4nnnn4C)CS[C@H]23)c2ccc(O)cc2)C(=O)C1=O	79.3

Block 2
Target: Replicase polyprotein 1ab, nsp13 helicase (rep, Severe acute respiratory syndrome coronavirus 2, UniProt P0DTD1)
Mode: inhibitor
Concentration: 20 µM
Structure (SMILES)	inhibition [%]
O=C(O)c1cc(=O)c2ccccc2[nH]1	2.58
COc1ccc(Cc2cnc(N)nc2N)cc1OC	1.08
O=S(=O)(c1ccccc1)c1cnc2c(N3CCNCC3)cccc2c1	-1.51
Nc1nc2c(cnn2CCc2ccccc2)c2nc(-c3ccco3)nn12	3.29
C[C@]12CCC(=O)C[C@@H]1CC[C@@H]1[C@@H]2CC[C@]2(C)C=CC[C@@H]12	2.31
Oc1c(Cl)cc(Cl)c(Cl)c1Cc1c(O)c(Cl)cc(Cl)c1Cl	19.4
c1cnc(NCc2ccc(CNc3ncccn3)cc2)nc1	0.59
NC(=O)c1ccc(-c2nc(-c3ccccn3)c(-c3ccc4c(c3)OCO4)[nH]2)cc1	13.5
Cc1ccc(-n2nc(C(C)(C)C)cc2NC(=O)Nc2ccc(OCCN3CCOCC3)c3ccccc23)cc1	9.39
COc1ccccc1CN[C@H]1CCCN[C@H]1c1ccccc1	2.47
C[C@]12CCC(=O)C=C1CC[C@@H]1[C@@H]2[C@@H](O)C[C@@]2(C)[C@H]1CC[C@]2(O)C(=O)COP(=O)(O)O	3.36
CCN1C[C@]2(OC(=O)c3ccccc3NC(C)=O)CC[C@H](OC)[C@@]34[C@@H]2C[C@@H]([C@@H]13)[C@@]1(O)C[C@H](OC)[C@H]2C[C@@H]4[C@]1(O)[C@H]2OC	5.03
CCCCCCCCCCCCCCCCCCCCCCCCCCCCO	-5.8
Cc1ccc(NC2=CC(=O)c3sc(C)nc3C2=O)cc1	-0.99
Cc1cc(CN)cc(C)c1NC(=O)c1ccc(-c2cc(Cl)ccc2Cl)o1	10.8

Block 3
Target: RNA binding protein fox-1 homolog 2, RRM domain, GST-SBP tag (RBFOX2, Homo sapiens, UniProt O43251-10, residues 100-194)
Method: RNA Bind-n-Seq
Form: RNA
Sample: in vitro
Concentration: 365 nM
Notes: natural RNA segment, single round, ends assumed
Relative to: no-protein control
Direction: higher = stronger binding
Constant ends, left off below: GGGAGUUCUACAGUCCGACGAUC … UGGAAUUCUCGGGUGCCAA
Target sequence (chain): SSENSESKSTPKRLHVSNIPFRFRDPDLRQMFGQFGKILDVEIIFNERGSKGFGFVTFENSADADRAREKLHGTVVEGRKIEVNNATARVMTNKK
Strand	RBNS enrichment (R)
UCCUGCCUUCUUCCUUGAGGGGCAGUUUGGGAAGGUGAUGGGUAUUAGUGGGGGACUGAGUUCAGGUUACCAGAACCAGUACCUCAGUAUUCUUUUUCAACAUGUAGGGC	0.29
CUGAAUGAGAGAAAAUUGUAUAACCAUCCUGCUGUUCCUUUAGUGCAAUACAAUAAAACUCUGAAAUAAGACUCACUUUCAGUGCAUUGUUUGAGAUUAAAAAUAGUAUU	0.793
AUGAAAAGUGCCAUACUUAACUUUUAAAGGAAAGACCUGACUUGCUUUUUCUCUAUUUAGACUGUUUUUGUACUUUACUAAUCUUUAAACUAUCAGGAAAAAAACCAAAA	1.03
AAGUUUACAGAUGUUUUUAAUUCUAGUAUUUUAUCUGGAACAACUUGUAGCAGCUAUAUAUUUCCCCUUGGUCCCAAGCCUGAUACUUUAGCCAUCAUAACUCACUAACA	0.519
AUCACAAUAGCAUCCCAGAGAGACAGUAGGAAAUUUCUCCUUAGUGAGAGCUGAGUCCUUGAGAAGUUAAGAGACUGUUUCCUGCUUCCCACCCCACCCCGUUUUUUGUC	1.14
GUCCAUCCCCAGCCUCCCAGGGAAGUGCUGCGCUGUUUGUAUUUGUGGUCUGGGCUUUUCUGCCUAGUUCUGUGAUUUCAAUUGACAUGAAAUGGCUAUAAAGAAUUUUG	0.504
AACUUAAGAUGUAUUUUAAGGACUUUAUCUGUGCUUCAUCACCCAACUUGUUCACAUUGUUAAUUUCUGUCCAGAGACCUGAAACUGCUUAAGUAUGGGAACAGACUGAA	0.243
CUAUGGACCUCAGGGCACUCUCCGUGCUGCCCACAAAGACUUGGGUGGAAAAGACUCAAAGGCACUUGGGCCAUUCAGGACCACCCCAGCUGUGUCUGGGUUGGUGGGGA	0.228

Block 4
Organism: SARS-CoV-2
Read-out: cytopathic effect
Cell line: Vero E6
Concentration: 10 µM
SMILES	inhibition
CC(=O)OC[C@H]1O[C@@H]([S-])[C@H](OC(C)=O)[C@@H](OC(C)=O)[C@@H]1OC(C)=O.CCP(CC)CC.[Au+]	-29.9%
O=C(O)c1cc(O)c(O)c(O)c1	-4.3%
N#CSc1cc(SC#N)c(N)nc1N	-34.3%

For quick reference, copied from above (block 2):
Structure (SMILES)	inhibition [%]
c1cnc(NCc2ccc(CNc3ncccn3)cc2)nc1	0.59
Cc1ccc(NC2=CC(=O)c3sc(C)nc3C2=O)cc1	-0.99
C[C@]12CCC(=O)C[C@@H]1CC[C@@H]1[C@@H]2CC[C@]2(C)C=CC[C@@H]12	2.31
